{"data": "Results pooled from the literature", "organism": "Pseudomonas aeruginosa"}
{"Compound": "CC(C)C[C@@H]1NC(=O)[C@@H](CC(C)C)NC(=O)[C@H](CCN)NC(=O)[C@@H](NC(=O)[C@H](CCN)NC(=O)[C@@H](NC(=O)CN=[N+]=[N-])[C@@H](C)O)CCNC(=O)[C@H]([C@@H](C)O)NC(=O)[C@H](CCN)NC(=O)[C@H](CCN)NC1=O", "assay": "broth microdilution", "test system": "ATCC 10145, cation-adjusted Mueller-Hinton broth", "setting": "18 to 20 h, 37 °C, 0.002% polysorbate 80", "MIC": "8 µg/mL"}
{"Compound": "NC[C@H]1O[C@H](O[C@H]2[C@H](O)[C@@H](O[C@H]3O[C@H](CO)[C@@H](O)[C@H](N)[C@H]3O)[C@H](N)C[C@@H]2N)[C@H](N)C[C@@H]1O", "assay": "microbial growth, broth dilution", "test system": "PAO1", "MIC": "0.25 µg/mL"}
{"Compound": "CC1(C)[C@H](NC(=O)/C(=N\\OCC(=O)N2CCC[C@@H]2C(=O)O)c2nsc(N)n2)C(=O)N1OS(=O)(=O)O", "assay": "agar dilution", "test system": "ATCC 27853", "MIC": "> 64 µg/mL"}
{"Compound": "COc1cc(C(=O)O)ccc1NC(=O)c1ccc(NC(=O)c2ccc(NC(=O)[C@H](Cc3c[nH]nn3)NC(=O)c3ccc(NC(=O)/C(C)=C/c4ccc(O)cc4)cc3)cc2)c(OC)c1", "assay": "broth microdilution", "test system": "ciprofloxacin-sensitive", "MIC": "32 µg/mL"}
{"Compound": "CC[C@H]1OC(=O)[C@H](C)[C@@H](O[C@H]2C[C@@](C)(OC)[C@@H](O)[C@H](C)O2)[C@H](C)[C@@H](O[C@@H]2O[C@H](C)C[C@H](N(C)C)[C@H]2O)[C@](C)(OC)C[C@@H](C)C(=O)[C@H](C)[C@@H](O)[C@]1(C)O", "test system": "PAO397, five efflux pumps deleted", "MIC": "> 32 µg/mL"}
{"Compound": "O=C(O)c1ccccc(=O)c1O", "assay": "broth microdilution", "test system": "ATCC 27853, CAMHB", "setting": "16 to 24 h, ≥80% growth inhibition", "MIC": "> 71.4 µM"}
{"Compound": "CCCCCCn1cc[n+](CCCCCCCCOc2cc(OCCCCCCCC[n+]3ccn(CCCCCC)c3)cc(OCCCCCCCC[n+]3ccn(CCCCCC)c3)c2)c1.[Br-].[Br-].[Br-]", "test system": "PAO1", "MIC": "2 µM"}
{"Compound": "CCCCCCCCCCCC(=O)Oc1c(C)c(OC)c2c(c1C)OC(=O)[C@@H](CCCCCCCCCC)[C@]2(O)/C=C/c1ccccc1 (relative stereo)", "assay": "microbial growth, broth dilution", "test system": "ATCC27853", "MIC": "5000 µg/mL"}
{"Compound": "CC[C@H](C)[C@H](NC(=O)[C@H](CCC(N)=O)NC(=O)[C@H](Cc1ccccc1)NC(=O)[C@H](CC(N)=O)NC(=O)[C@H](CCCCN)NC(=O)[C@H](CC(C)C)NC(=O)[C@H](CCCNC(=N)N)NC(=O)[C@H](CCCCN)NC(=O)[C@H](CCCCN)NC(=O)[C@@H](NC(=O)[C@H](CO)NC(=O)[C@H](CCCCN)NC(=O)CNC(=O)[C@H](CC(C)C)NC(=O)[C@H](CCCCN)NC(=O)[C@H](CCCCN)NC(=O)[C@H](CC(C)C)NC(=O)[C@H](CCCCN)NC(=O)[C@H](CCCCN)NC(=O)[C@H](CCCNC(=N)N)NC(=O)[C@H](CC(C)C)NC(=O)CNC(=O)[C@@H](N)CCCNC(=N)N)[C@@H](C)CC)C(=O)NCC(=O)N[C@@H](Cc1ccccc1)C(=O)N[C@@H](CO)C(=O)N[C@H](C(=O)N1CCC[C@H]1C(=O)N[C@@H](Cc1ccccc1)C(=O)N[C@@H](C)C(=O)NCC(=O)O)C(C)C", "assay": "broth microdilution", "test system": "PAO1", "MIC": "2.23 µM"}
{"Compound": "CC[C@H]1OC(=O)[C@H](C)[C@@H](OC(=O)Cc2ccc3c(c2)OCO3)[C@H](C)[C@@H](O[C@@H]2O[C@H](C)C[C@H](N(C)C)[C@H]2O)[C@](C)(OC)C[C@@H](C)C(=O)[C@H](C)[C@@H](O)[C@]1(C)O", "test system": "DSM 50071", "setting": "with: colistin sulfate at 0.5 x MIC", "MIC": "32 µM"}
{"Compound": "CN[C@H](CC(C)C)C(=O)N[C@H]1C(=O)N[C@@H](CC(N)=O)C(=O)N[C@H]2C(=O)N[C@H]3C(=O)N[C@H](C(=O)N[C@H](C(=O)O)c4cc(O)cc(O)c4-c4cc3ccc4O)[C@H](O)c3ccc(c(Cl)c3)Oc3cc2cc(c3O[C@@H]2O[C@H](CO)[C@@H](O)[C@H](O)[C@H]2O[C@H]2C[C@](C)(NCc3ccc(OCc4cn(CC(=O)N[C@H](C(=O)N[C@@H](CCN)C(=O)N[C@H]5CCNC(=O)[C@H]([C@@H](C)O)NC(=O)[C@H](CCN)NC(=O)[C@H](CCN)NC(=O)[C@H](CC(C)C)NC(=O)[C@@H](CC(C)C)NC(=O)[C@H](CCN)NC5=O)[C@@H](C)O)nn4)c(OC)c3)[C@H](O)[C@H](C)O2)Oc2ccc(cc2Cl)[C@H]1O", "assay": "broth microdilution", "test system": "ATCC 27853, cation-adjusted Mueller-Hinton broth", "setting": "18 to 20 h, 37 °C, 0.002% polysorbate 80", "MIC": "16 µg/mL"}
{"Compound": "CC1(C)[C@H](NC(=O)/C(=N\\OCCN)c2csc(N)n2)C(=O)N1OS(=O)(=O)O", "assay": "agar dilution", "test system": "ATCC 27853", "MIC": "> 64 µg/mL"}
{"Compound": "Cc1c(CN(C)C(=O)/C=C/c2cnc3c(c2)CC(N)C(=O)N3)oc2ccccc12 (stereo not drawn)", "assay": "microbial growth, broth dilution", "test system": "PA01", "MIC": "> 64 µg/mL"}
{"Compound": "CCCCCCCCCC[N+](C)(C)CCCCOc1cc(OCCCC[N+](C)(C)CCCCCCCCCC)cc(OCCCC[N+](C)(C)CCCCCCCCCC)c1.[Br-].[Br-].[Br-]", "test system": "PAO1", "MIC": "2 µM"}
{"Compound": "N=C(N)NCCC[C@@H]1NC(=O)[C@H](CCCNC(=N)N)NC(=O)[C@@H](CCCNC(=N)N)NC(=O)[C@@H](CCCNC(=N)N)NC(=O)[C@@H](C(c2ccccc2)c2ccccc2)NC(=O)[C@H](Cc2c[nH]c3ccccc23)NC(=O)[C@@H](C(c2ccccc2)c2ccccc2)NC1=O", "test system": "ATCC 27853", "MIC": "64 µg/mL"}
{"Compound": "COc1ccc2ccc(O)c(/C=N/[C@H]3CCCC[C@H]3/N=C/c3ccccc3O)c2c1", "assay": "microbial growth, broth dilution", "setting": "clinical isolate", "MIC": "> 40 µM"}
{"Compound": "COc1c(NC(=O)c2ccc(NC(=O)c3ccc(NC(=O)[C@H](CC#N)NC(=O)c4ccc(NC(=O)/C(C)=C/c5ccc(O)cc5)cc4)cc3)c(OC)c2O)ccc(C(=O)O)c1O", "assay": "broth microdilution", "test system": "ciprofloxacin-resistant", "MIC": "2 µg/mL"}
{"Compound": "CO[C@@H]1[C@@H](OC(N)=O)[C@@H](O)[C@H](Oc2ccc3c(O)c(NC(=O)c4ccc(O)c(CC=C(C)C)c4)c(=O)oc3c2C)OC1(C)C", "assay": "broth microdilution", "test system": "phenazine non-producing", "MIC": "512 µg/mL"}
{"Compound": "COc1c(NC(=O)c2ccc(NC(=O)c3ccc(NC(=O)[C@H](Cc4c[nH]nn4)NC(=O)c4ccc(NC(=O)/C(C)=C/c5ccc(O)cc5)cc4)cc3)c(OC)c2O)ccc(C(=O)O)c1O", "assay": "broth microdilution", "test system": "ciprofloxacin-sensitive", "MIC": "4 µg/mL"}
{"Compound": "CC[C@H]1OC(=O)[C@H](C)[C@@H](OC(=O)Cc2c(F)cc([N+](=O)[O-])cc2F)[C@H](C)[C@@H](O[C@@H]2O[C@H](C)C[C@H](N(C)C)[C@H]2O)[C@](C)(OC)C[C@@H](C)C(=O)[C@H](C)[C@@H](O)[C@]1(C)O", "assay": "microbial growth", "test system": "ATCC27853", "MIC": "> 32 µg/mL"}
{"Compound": "C#CCO/N=C(\\C(=O)N[C@@H]1C(=O)N(OS(=O)(=O)O)C1(C)C)c1nsc(N)n1", "assay": "agar dilution", "test system": "ATCC 27853", "MIC": "> 64 µg/mL"}
{"Compound": "CCCCCCCC[C@@H]1NC(=O)[C@@H](Cc2ccccc2)NC(=O)[C@H](CCN)NC(=O)[C@@H](NC(=O)[C@H](CCN)NC(=O)[C@@H](NC(=O)[C@H](CCN)NC(=O)CCCCCCC)[C@@H](C)O)CCNC(=O)[C@H]([C@@H](C)O)NC(=O)[C@H](CCN)NC(=O)[C@H](CCN)NC1=O", "test system": "ATCC 27853", "MIC": "0.25 to 0.5 µg/mL"}
{"Compound": "CC1(C)[C@H](NC(=O)/C(=N\\OCCN)c2nsc(N)n2)C(=O)N1OS(=O)(=O)O", "assay": "agar dilution", "test system": "ATCC 27853", "MIC": "> 64 µg/mL"}
{"Compound": "COc1ccc2ccc(O)c(/C=N/[C@H]3CCCC[C@H]3/N=C/c3cc(C(C)(C)C)ccc3O)c2c1", "assay": "microbial growth, broth dilution", "setting": "clinical isolate", "MIC": "> 40 µM"}
{"note": "Some of these lines once more:"}
{"Compound": "O=C(O)c1ccccc(=O)c1O", "assay": "broth microdilution", "test system": "ATCC 27853, CAMHB", "setting": "16 to 24 h, ≥80% growth inhibition", "MIC": "> 71.4 µM"}
{"Compound": "CCCCCCn1cc[n+](CCCCCCCCOc2cc(OCCCCCCCC[n+]3ccn(CCCCCC)c3)cc(OCCCCCCCC[n+]3ccn(CCCCCC)c3)c2)c1.[Br-].[Br-].[Br-]", "test system": "PAO1", "MIC": "2 µM"}
{"Compound": "CCCCCCCCCCCC(=O)Oc1c(C)c(OC)c2c(c1C)OC(=O)[C@@H](CCCCCCCCCC)[C@]2(O)/C=C/c1ccccc1 (relative stereo)", "assay": "microbial growth, broth dilution", "test system": "ATCC27853", "MIC": "5000 µg/mL"}
